Experimental data collected from several papers.
Parts stem from different laboratories: compare values within a part only.

Set 1
Target: Replicase polyprotein 1ab, polymerase (rep, Severe acute respiratory syndrome coronavirus 2, UniProt P0DTD1)
Observed: enzyme activity
Mode: inhibitor
Concentration: 20 µM
Structure (SMILES) | inhibition
CC(=O)Oc1ccccc1C(=O)Nc1ncc([N+](=O)[O-])s1 | 6.46%
Nc1nnc(Sc2ncc([N+](=O)[O-])s2)s1 | -12.2%
CC(=C(CCO)SSCC1CCCO1)N(C=O)Cc1cnc(C)nc1N (stereo in doubt) | -0.5%
CN1CC[C@@]2(C)c3cc(OC(=O)Nc4ccccc4)ccc3N(C)[C@@H]12 | -1.9%
COC(=O)[C@@H]1[C@H]2C[C@H]3c4[nH]c5ccccc5c4CCN3C[C@@H]2CC[C@@H]1O | 4.17%
NCC(=O)CCC(=O)O | -10.1%
Cc1cc(C)c(S(=O)(=O)Nc2ccccc2C(F)(F)F)c(C)c1 | -5.79%
CCS(=O)(=O)CCn1c([N+](=O)[O-])cnc1C | -2.68%
O=c1[nH]c(=O)n([C@H]2C[C@H](O)[C@@H](CO)O2)cc1Br | 0.02%
C[C@H]1C[C@@H]2[C@H]([C@@H](O)C[C@@]3(C)[C@H]2CC[C@]3(O)C(=O)CO)[C@@]2(C)C=CC(=O)C=C12 | 25.3%
COc1cc2c(NC3CCN(C(C)C)CC3)nc(N3CCC(F)(F)CC3)nc2cc1OCCCN1CCCC1 | 1.28%
Clc1ccc([C@]23CNC[C@H]2C3)cc1Cl | 0.23%
O=C1CCc2cc(OCCCCc3nnnn3C3CCCCC3)ccc2N1 | 2.57%
CCCCc1nc(Cl)c(CO)n1Cc1ccc(-c2ccccc2-c2nnn[nH]2)cc1 | 2.31%
OCCN1CCN(CC/C=C2/c3ccccc3Sc3ccc(Cl)cc32)CC1 | -1.75%
Cn1cc(-c2ccc(S(=O)(=O)n3ccc(/C=C/C(=O)Nc4ccccc4N)c3)cc2)cn1 | 1.41%
CCOc1c2c(c(OCC)c3ccccc13)C(=O)N(c1ccc(CC(=O)NS(=O)(=O)c3ccccc3)cc1)C2 | -0.87%
Cc1ncc(CO)c(CO)c1O | -2.71%
CNC(=O)c1ccc2cc([C@@]3(O)CCn4cncc43)ccc2c1 | -2.6%
COC(=O)C1=C(C)NC(C)=C(C(=O)OC/C=C/c2ccccc2)C1c1cccc([N+](=O)[O-])c1 (centres unmarked) | 0.33%
C1COC(NC(C2CC2)C2CC2)=N1 | -1.43%
CN1CCN(c2ccc(Nc3ncc4cc(C#N)c(=O)n(C5CCCC5)c4n3)cc2)CC1 | -1.93%

Set 2
Target: Histone acetyltransferase KAT6A, winged helix 1, GST fusion (KAT6A, Homo sapiens, UniProt Q92794, residues 1-85)
Method: protein binding microarray
Form: double-stranded DNA, one strand shown
Matrix: in vitro
Concentration: not given
Setting: 8-mer, flanks averaged, mean of 2 arrays, mostly near background
Baseline: not given
Reading: higher = stronger binding
Construct (chain): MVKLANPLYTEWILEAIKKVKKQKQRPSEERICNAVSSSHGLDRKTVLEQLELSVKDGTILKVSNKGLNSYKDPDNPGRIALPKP
Strand | E-score
GCGAGGTA | 0.17
AGACAGGC | 0.067
ATCATATG | -0.0727
GCACCCCA | 0.0169
CAAGTCCC | -0.0723
AGATAAGG | -0.082
GCAGTGGC | 0.143
AAGCCCCC | -0.0147

Set 3
Target: Sal-like protein 4, full length isoform B (SALL4, Homo sapiens, UniProt Q9UJQ4-2, residues 1-616)
Method: universal PBM
Form: double-stranded DNA, one strand shown
Matrix: in vitro
Concentration: not given
Setting: 8-mer, flanks averaged, mean of replicates
Reading: higher = stronger binding
Target sequence (chain): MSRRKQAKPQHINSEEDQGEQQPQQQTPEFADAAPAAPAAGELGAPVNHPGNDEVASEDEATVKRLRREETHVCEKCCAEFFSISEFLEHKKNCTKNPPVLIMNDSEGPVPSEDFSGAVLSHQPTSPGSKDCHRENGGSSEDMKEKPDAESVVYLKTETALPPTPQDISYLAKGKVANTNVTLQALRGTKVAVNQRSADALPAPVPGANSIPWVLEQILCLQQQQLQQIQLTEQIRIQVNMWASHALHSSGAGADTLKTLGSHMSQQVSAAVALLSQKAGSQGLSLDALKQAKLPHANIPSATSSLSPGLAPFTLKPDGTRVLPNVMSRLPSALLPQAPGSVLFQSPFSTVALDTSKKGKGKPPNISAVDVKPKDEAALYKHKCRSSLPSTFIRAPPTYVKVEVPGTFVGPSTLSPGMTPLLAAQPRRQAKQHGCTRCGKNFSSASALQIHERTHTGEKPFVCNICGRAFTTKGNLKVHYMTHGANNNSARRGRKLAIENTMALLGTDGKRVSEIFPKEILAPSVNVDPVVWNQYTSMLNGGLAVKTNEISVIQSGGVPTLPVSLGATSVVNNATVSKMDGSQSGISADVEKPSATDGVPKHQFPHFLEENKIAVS
Strand | E-score
AGTGATAA | 0.254
CATAGTCC | 0.0561
CACGTGAC | -0.05
CAGGTAAC | 0.0826
CTTGGATA | 0.0665
GGGTGACA | -0.12
GCCTCGGA | -0.288
GCCTACTA | -0.0542

Set 4
Target: RNA binding protein fox-1 homolog 2, RRM domain, GST-SBP tag (RBFOX2, Homo sapiens, UniProt O43251-10, residues 100-194)
Method: RNA Bind-n-Seq
Form: RNA
Matrix: in vitro
Concentration: 365 nM
Setting: natural RNA segment, single round, ends assumed
Baseline: no-protein control
Reading: higher = stronger binding
Constant ends, left off below: GGGAGUUCUACAGUCCGACGAUC … UGGAAUUCUCGGGUGCCAA
Target sequence (chain): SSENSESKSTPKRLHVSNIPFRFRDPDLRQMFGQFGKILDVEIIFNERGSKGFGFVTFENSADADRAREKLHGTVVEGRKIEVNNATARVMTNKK
Strand | RBNS enrichment (R)
GCCAUUCAUUCUACAGUCUUCCCAAGGUGUCCUAGUCUCUCCCAGGCCCCUGUGAUUUUCUCACAUAGGUGUCUUCUCAGUUCUGUCAAAUUCCUGAUGUUCUGCAAUAC | 0.414
CUGAAUGAGAGAAAAUUGUAUAACCAUCCUGCUGUUCCUUUAGUGCAAUACAAUAAAACUCUGAAAUAAGACUCACUUUCAGUGCAUUGUUUGAGAUUAAAAAUAGUAUU | 0.793
UGUGAAGUAUUUUUUUAAAACAAAACAAAAAUUAUGGUCAUUAAAAAACUAGAGAAUUAGCCAUAUUAAGGAUUUUUCUUGACUGCAAAUUACUUCUAAAGAAUCAUCAG | 0.496
AAUUUUGUCAUGUUUCUCAAGCAGUUUUUCUGAGUAGUUUCUGAGGAGGAACAAAUUACAAGUGUACCCAAUAACUGAAAAUGUUUUAACUCACUCUCAUUUGUAAGCAG | 0.321
UUCUUACUGUGUAAAAGAAGCUAGCUUAGUCUGUACCUAGAAUUCCUCUUGGUUAGAGGAGUGAGUUUCUUUUUUUUCCAUUAACUUGUUUCCUGAUCGAGAAACACGUG | 0.554
AAGACCUGUCUUCUGUGAGCUGUGCUCAUGUGCAGUGGAGCAGACCUGCUUCCGCCUGGAGGAGAGCUGGGCAUCCAUGUUAGCCACAGUUCCUCAUCCACAGUGCUCCC | 0.282
UGCCUCCGUCUCCUAGUGAUAAUGCUCCAAGUCUAUGAACUGUUAAAUCAGCAUUCAUUUUAAGAAAAGCAACUUUAGUUUCAAAGAUACUUUUAAGCUUCUAAAUUGAU | 0.624
GCCAUUUGAACUUUCGUAAGAGACCUCAGCAGUUAGACUGAGAAAAGUUAGAGUGCUGUAGUUAUGAAGUCAUACAUUUUUGAUAAAAUACCUGUGGAAAACCAGGGAUC | 0.477

Single results of other studies
SMILES | cell line | conditions | scale | endpoint | result
COc1ccc(C(CN(C)C)C2(O)CCCCC2)cc1 (centres unmarked) | HEK-293T/ACE2 | concentration not given, 16 (unit not given) | baseline: vehicle | viability | 103%

For quick reference, copied from above (set 1):
Structure (SMILES) | inhibition
CCS(=O)(=O)CCn1c([N+](=O)[O-])cnc1C | -2.68%
Nc1nnc(Sc2ncc([N+](=O)[O-])s2)s1 | -12.2%
Clc1ccc([C@]23CNC[C@H]2C3)cc1Cl | 0.23%
CCOc1c2c(c(OCC)c3ccccc13)C(=O)N(c1ccc(CC(=O)NS(=O)(=O)c3ccccc3)cc1)C2 | -0.87%
